Assay results from different studies.
A part holds a random share of what one study measured.
UniProt Q7KZI7, sequence (whole entry, looked up): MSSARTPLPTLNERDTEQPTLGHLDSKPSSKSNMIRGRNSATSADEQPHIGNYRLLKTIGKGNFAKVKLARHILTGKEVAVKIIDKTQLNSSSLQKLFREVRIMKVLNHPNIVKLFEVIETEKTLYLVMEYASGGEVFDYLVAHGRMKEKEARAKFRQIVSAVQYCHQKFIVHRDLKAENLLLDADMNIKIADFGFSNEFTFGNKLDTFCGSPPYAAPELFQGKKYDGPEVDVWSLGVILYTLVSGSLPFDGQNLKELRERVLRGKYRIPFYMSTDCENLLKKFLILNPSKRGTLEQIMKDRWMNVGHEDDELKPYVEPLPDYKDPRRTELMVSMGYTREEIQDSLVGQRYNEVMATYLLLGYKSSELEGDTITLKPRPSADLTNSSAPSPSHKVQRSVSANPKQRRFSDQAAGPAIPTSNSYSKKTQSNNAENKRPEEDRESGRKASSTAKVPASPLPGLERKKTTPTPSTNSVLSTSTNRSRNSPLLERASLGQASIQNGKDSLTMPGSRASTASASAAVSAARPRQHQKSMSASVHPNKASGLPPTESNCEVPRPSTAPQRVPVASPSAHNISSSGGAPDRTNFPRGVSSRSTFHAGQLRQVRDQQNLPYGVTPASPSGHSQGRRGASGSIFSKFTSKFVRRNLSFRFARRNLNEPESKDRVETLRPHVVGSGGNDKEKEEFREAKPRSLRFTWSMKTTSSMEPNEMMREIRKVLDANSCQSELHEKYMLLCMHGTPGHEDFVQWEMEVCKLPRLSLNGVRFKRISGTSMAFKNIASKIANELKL
UniProt Q16566, sequence (whole entry, looked up): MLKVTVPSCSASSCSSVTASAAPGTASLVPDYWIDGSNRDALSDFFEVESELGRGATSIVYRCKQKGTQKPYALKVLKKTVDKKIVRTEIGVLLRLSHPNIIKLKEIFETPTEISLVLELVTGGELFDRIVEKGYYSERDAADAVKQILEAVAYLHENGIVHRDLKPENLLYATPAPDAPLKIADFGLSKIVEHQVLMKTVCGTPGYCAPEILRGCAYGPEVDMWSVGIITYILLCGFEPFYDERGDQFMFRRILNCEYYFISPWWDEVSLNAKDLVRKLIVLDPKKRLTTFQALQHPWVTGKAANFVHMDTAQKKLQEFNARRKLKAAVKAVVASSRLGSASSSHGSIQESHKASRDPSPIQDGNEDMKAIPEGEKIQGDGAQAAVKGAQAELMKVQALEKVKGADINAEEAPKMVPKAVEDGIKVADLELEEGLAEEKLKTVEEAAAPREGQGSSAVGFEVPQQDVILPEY
UniProt P34969, sequence (whole entry, looked up): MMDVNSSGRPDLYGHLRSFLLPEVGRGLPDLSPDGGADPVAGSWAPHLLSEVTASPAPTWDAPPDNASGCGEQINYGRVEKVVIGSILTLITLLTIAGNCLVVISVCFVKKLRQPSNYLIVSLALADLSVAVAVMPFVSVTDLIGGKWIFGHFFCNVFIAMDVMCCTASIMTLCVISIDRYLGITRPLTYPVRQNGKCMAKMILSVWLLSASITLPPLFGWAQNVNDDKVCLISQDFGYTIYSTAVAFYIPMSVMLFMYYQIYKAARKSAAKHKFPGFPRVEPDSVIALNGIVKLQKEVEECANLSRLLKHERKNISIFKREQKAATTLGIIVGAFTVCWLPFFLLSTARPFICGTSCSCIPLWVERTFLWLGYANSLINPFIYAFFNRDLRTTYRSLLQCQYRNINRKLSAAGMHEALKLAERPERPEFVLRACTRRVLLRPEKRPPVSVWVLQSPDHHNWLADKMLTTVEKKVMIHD
UniProt P42681, sequence (whole entry, looked up): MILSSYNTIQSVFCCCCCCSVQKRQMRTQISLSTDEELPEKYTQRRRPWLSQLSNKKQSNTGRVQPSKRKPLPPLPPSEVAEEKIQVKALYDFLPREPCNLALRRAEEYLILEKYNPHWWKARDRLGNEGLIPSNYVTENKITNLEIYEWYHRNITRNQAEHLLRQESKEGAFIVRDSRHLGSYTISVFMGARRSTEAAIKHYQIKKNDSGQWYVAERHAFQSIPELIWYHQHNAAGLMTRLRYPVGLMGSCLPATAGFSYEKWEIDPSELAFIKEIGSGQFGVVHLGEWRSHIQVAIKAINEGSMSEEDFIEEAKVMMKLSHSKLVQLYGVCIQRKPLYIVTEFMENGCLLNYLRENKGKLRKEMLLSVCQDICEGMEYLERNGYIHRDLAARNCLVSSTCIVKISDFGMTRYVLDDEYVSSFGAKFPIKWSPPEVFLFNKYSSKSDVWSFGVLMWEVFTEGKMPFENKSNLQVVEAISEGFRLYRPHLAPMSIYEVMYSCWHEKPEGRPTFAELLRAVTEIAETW
UniProt P18825, sequence (whole entry, looked up): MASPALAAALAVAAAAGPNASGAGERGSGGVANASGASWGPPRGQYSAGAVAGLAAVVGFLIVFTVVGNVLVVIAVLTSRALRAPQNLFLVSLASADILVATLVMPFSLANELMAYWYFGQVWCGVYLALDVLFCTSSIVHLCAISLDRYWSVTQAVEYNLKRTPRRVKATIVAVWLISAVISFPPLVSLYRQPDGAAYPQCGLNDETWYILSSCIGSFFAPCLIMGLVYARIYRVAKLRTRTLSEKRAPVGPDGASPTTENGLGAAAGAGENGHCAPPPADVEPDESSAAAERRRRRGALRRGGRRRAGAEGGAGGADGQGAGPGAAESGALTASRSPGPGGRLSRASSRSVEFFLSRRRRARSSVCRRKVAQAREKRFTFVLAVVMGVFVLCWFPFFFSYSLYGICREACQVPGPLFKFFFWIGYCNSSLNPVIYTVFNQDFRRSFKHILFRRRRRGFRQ
UniProt Q8WXR4, sequence (whole entry, looked up): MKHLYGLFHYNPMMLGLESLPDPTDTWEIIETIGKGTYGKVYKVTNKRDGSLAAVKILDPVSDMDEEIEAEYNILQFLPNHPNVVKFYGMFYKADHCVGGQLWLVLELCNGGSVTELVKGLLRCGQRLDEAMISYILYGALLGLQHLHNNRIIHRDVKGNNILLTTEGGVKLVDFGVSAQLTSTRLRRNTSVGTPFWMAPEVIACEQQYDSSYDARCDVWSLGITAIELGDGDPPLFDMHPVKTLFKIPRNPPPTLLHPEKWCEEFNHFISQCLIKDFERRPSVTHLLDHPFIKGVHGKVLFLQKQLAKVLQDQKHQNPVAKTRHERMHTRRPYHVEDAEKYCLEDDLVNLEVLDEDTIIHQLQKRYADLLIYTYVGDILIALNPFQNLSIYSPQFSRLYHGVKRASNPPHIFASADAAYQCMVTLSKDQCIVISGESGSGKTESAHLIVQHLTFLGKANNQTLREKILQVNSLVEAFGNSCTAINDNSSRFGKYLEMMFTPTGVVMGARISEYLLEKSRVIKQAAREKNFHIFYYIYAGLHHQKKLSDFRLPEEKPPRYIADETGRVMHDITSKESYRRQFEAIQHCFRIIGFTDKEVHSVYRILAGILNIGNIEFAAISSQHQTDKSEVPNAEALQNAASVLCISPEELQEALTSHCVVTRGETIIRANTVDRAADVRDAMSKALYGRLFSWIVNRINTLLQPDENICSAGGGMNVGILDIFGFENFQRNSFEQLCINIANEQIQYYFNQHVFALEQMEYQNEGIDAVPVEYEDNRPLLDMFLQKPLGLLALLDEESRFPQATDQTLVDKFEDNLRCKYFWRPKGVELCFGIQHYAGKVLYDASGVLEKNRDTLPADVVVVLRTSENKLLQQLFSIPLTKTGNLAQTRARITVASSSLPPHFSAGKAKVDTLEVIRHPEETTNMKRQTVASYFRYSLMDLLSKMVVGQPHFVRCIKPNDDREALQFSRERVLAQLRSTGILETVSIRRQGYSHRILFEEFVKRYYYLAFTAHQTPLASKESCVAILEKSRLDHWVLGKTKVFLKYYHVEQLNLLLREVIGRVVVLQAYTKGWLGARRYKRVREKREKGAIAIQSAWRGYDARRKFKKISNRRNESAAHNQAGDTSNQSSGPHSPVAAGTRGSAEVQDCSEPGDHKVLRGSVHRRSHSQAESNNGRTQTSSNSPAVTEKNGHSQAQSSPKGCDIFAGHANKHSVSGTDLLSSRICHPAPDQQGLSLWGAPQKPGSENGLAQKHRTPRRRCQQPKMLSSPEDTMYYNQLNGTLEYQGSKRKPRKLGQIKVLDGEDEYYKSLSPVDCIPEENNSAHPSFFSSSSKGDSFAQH
UniProt P50750, sequence (whole entry, looked up): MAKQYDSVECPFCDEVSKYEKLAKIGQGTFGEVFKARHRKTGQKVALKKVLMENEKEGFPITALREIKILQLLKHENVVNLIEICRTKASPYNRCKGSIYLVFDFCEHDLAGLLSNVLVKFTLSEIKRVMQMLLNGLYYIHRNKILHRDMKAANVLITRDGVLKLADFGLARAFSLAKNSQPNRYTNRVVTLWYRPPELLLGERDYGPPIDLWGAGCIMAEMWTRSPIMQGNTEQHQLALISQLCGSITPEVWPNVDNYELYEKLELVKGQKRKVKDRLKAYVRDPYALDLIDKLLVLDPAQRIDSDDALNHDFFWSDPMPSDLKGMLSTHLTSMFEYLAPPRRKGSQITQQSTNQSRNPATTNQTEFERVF

Block 1
SMILES: N#Cc1ccc(Nc2ccc3[nH]c(=O)[nH]c3c2)c(Cl)c1
Effect on: cell-free assay
Tested at: 10 µM
It gave -7.86% for inhibition (DRD1 (Homo sapiens, UniProt P21728)).
It gave -23.2% for inhibition (ADRA1A (Homo sapiens, UniProt P35348)).
ADRA2C (Homo sapiens, UniProt P18825) — inhibition: 4.16%.
CHRM4 (Homo sapiens, UniProt P08173) — inhibition: 11.6%.
ADRA1D (Homo sapiens, UniProt P25100) — inhibition: -5.71%.
HTR7 (Homo sapiens, UniProt P34969) — inhibition: 8.12%.
For HTR6 (Homo sapiens, UniProt P50406): inhibition read -1.18%.

Block 2
Structure (SMILES): O=C1Cc2c([nH]c3ccc(Br)cc23)-c2ccccc2N1
Effect on: enzyme activity
Mode: inhibitor
Tested at: 0.5 µM
Baseline: control
For TXK (Homo sapiens, UniProt P42681): remaining activity read 82.6%.
For CDC42BPB (Homo sapiens, UniProt Q9Y5S2): remaining activity read 95.9%.
For CAMK4 (Homo sapiens, UniProt Q16566): remaining activity read 98.1%.
For Cyclin-dependent kinase 9, with cyclin K (CDK9, Homo sapiens, UniProt P50750): remaining activity read 31.5%.
For ROCK1 (Homo sapiens, UniProt Q13464): remaining activity read 96.1%.
It gave 94.6% for remaining activity (DCLK2 (Homo sapiens, UniProt Q8N568)).
The remaining activity was 98.4% (DDR2 (Homo sapiens, UniProt Q16832)).
It gave 97.9% for remaining activity (GRK4 (Homo sapiens, UniProt P32298)).
The remaining activity was 96% (PLK3 (Homo sapiens, UniProt Q9H4B4)).
Myosin-IIIb (MYO3B, Homo sapiens, UniProt Q8WXR4) — remaining activity: 97.4%.
MARK2 (Homo sapiens, UniProt Q7KZI7) — remaining activity: 74.3%.
It gave 96.6% for remaining activity (PAK3 (Homo sapiens, UniProt O75914)).
It gave 101% for remaining activity (PRKG2 (Homo sapiens, UniProt Q13237)).

Block 3
Target: Beta-1 adrenergic receptor (ADRB1, Homo sapiens, UniProt P08588)
UniProt P08588, sequence (whole entry, looked up): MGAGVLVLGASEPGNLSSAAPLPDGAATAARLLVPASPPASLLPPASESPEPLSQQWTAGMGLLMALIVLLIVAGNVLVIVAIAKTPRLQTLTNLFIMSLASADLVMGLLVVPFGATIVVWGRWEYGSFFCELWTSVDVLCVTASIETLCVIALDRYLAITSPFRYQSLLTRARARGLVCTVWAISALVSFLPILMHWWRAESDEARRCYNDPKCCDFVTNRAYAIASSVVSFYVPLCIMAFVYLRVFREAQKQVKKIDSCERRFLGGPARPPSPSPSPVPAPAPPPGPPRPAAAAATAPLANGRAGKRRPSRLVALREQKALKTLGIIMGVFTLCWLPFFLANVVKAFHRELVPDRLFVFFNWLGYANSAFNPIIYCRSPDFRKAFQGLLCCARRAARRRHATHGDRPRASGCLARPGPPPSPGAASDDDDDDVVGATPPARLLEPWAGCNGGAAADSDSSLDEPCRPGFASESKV
Mode: antagonist
For `FC(F)(F)c1nnc2ccc(N3CCCN(c4cnc5ccccc5n4)CC3)nn12`, the IC50 was at least 100 µM.
The IC50 of `CN1C(=O)COC[C@@H]1[C@H](O)c1ccc(NC(=O)Cc2ccccc2)cc1` is reported as at least 100 µM.
For `O=C(Nc1cccc(-c2ccc(N3CCOCC3)nn2)c1)Nc1ccccc1Cl`, the IC50 was at least 100 µM.
The IC50 of `CCN(CC)c1ccc2c(c1)OC(=O)/C(=C\Nc1ccc(CC(=O)O)c(-c3c4c(nc5ccccc35)CCC(C(=O)NN)C4)c1)C2=O` (stereo not drawn) is reported as at least 100 µM.
`CCN(Cc1cccs1)c1ncnc2ccc(-c3ccc4c(c3)OCO4)cc12` gave an IC50 of at least 100 µM.
`CC[C@H](NC(C)C)[C@H](O)c1ccc(O)c2[nH]c(=O)ccc12` (racemic) gave an IC50 of at least 100 µM.
`NCCCN(CCCCNCCCNC(=O)CCc1ccc(O)c(O)c1)C(=O)CCc1ccc(O)c(O)c1` has an IC50 of at least 100 µM.
For `OC(c1ccccc1)c1cn(C2CCN(Cc3cnc4ccccc4c3)CC2)nn1` (stereo not drawn), the IC50 was 15.8 µM.
`Cn1nccc1-c1ncc2c(n1)OCCN(c1cccc(C(F)(F)F)c1)C2=O` has an IC50 of at least 100 µM.
`Oc1cccc(-c2c3nc(c(-c4cccc(O)c4)c4ccc([nH]4)c(-c4cccc(O)c4)c4nc(c(-c5cccc(O)c5)c5ccc2[nH]5)CC4)C=C3)c1` gave an IC50 of at least 100 µM.

Block 4
Host: mouse
Matrix: microsomes or S9
Tested at: 2 µM
Time: 0.5 h
`O=C(Nc1c(C(c2ccc(Cl)cc2)N2CCN(CCO)CC2)oc2ccccc12)c1cccs1` (stereo not drawn) gave a remaining compound of 19%.
`CCN(CC)CCCNc1oc(-c2ccco2)nc1S(=O)(=O)c1ccc2c(c1)OCCO2` has a remaining compound of 31.6%.
For `COc1nc([N+](=O)[O-])cn1CC(OCc1ccc(F)cc1)c1ccc(F)cc1F` (stereo not drawn), the remaining compound was 0.501%.
The remaining compound of `COc1cc(=O)n2c(c1C(=O)N1CCN(c3ccc(C)cc3)CC1)CCCC2` is reported as 53.6%.
`Cc1cc(C)n(-c2nc(NCc3ccco3)c3c4c(sc3n2)COC(C)(C)C4)n1` has a remaining compound of 5.01%.
The remaining compound of `COc1cc(=O)[nH]cc1C(=O)N1CCCCC1c1cc[nH]n1` (stereo not drawn) is reported as 97.4%.

A few entries again (block 2):
For CDC42BPB (Homo sapiens, UniProt Q9Y5S2): remaining activity read 95.9%.
For CAMK4 (Homo sapiens, UniProt Q16566): remaining activity read 98.1%.
For Cyclin-dependent kinase 9, with cyclin K (CDK9, Homo sapiens, UniProt P50750): remaining activity read 31.5%.
For ROCK1 (Homo sapiens, UniProt Q13464): remaining activity read 96.1%.
It gave 94.6% for remaining activity (DCLK2 (Homo sapiens, UniProt Q8N568)).
